Published values pooled from the literature.
Each line is one published result; not all experiments were run side by side. ± marks the error that the study gave.

| Structure (SMILES) | assay | system | setting | half-life |
| --- | --- | --- | --- | --- |
| CCCCCCCCCCCCCCCCCCOP(=O)([O-])OC1CC[N+](C)(C)CC1 | – | rhesus monkey, male, cerebrospinal fluid | oral, 7 mg/kg, single dose, median of 3 | 16600 min |
| C[N+]1(CC(=O)OC2CCCCCCCCCCC2)CCOCC1.[I-] | metabolic stability | human, liver microsomes | 1 µM, pH 7.4 | < 2 min |
| OC[C@H]1O[C@@H](OCCc2ccc(O)cc2)[C@H](O)[C@@H](O)[C@@H]1O | – | Balb/c tumour-bearing mice, plasma | oral, 109.2 mg/kg SNZ | 43.9 min |
| CNCc1ccc(-c2[nH]c3cc(F)cc4c3c2CCNC4=O)cc1 | – | human, plasma | oral, 40 mg once daily, steady state, median | 554 min |
| CC[C@H](C)[C@H](NC(=O)[C@H](CO)NC(=O)[C@H](Cc1ccc(O)cc1)NC(=O)[C@H](CC(=O)O)NC(=O)[C@H](CO)NC(=O)[C@@H](NC(=O)[C@H](Cc1ccccc1)NC(=O)[C@@H](NC(=O)CNC(=O)[C@H](CCC(=O)O)NC(=O)[C@H](C)NC(=O)[C@@H](N)Cc1ccc(O)cc1)[C@@H](C)O)[C@@H](C)CC)C(=O)N[C@@H](C)C(=O)N[C@@H](CCSC)C(=O)N[C@@H](CC(=O)O)C(=O)N[C@@H](CCCCN)C(=O)N[C@H](C(=O)N[C@@H](CCCNC(=N)N)C(=O)N[C@@H](CCC(N)=O)C(=O)N[C@@H](CCC(N)=O)C(=O)N[C@@H](CC(=O)O)C(=O)N[C@@H](Cc1ccccc1)C(=O)N[C@H](C(=O)N[C@@H](CC(N)=O)C(=O)N[C@@H](Cc1c[nH]c2ccccc12)C(=O)N[C@@H](CC(C)C)C(=O)N[C@@H](CC(C)C)C(=O)N[C@@H](C)C(=O)N[C@@H](CCC(N)=O)C(=O)N[C@@H](CCCNC(=N)N)C(=O)NCC(=O)N[C@@H](CCCCN)C(=O)N[C@@H](CCCCN)C(=O)N[C@@H](CO)C(=O)N[C@@H](CC(=O)O)C(=O)N[C@@H](Cc1c[nH]c2ccccc12)C(=O)N[C@@H](CCCCN)C(=O)N[C@@H](Cc1c[nH]cn1)C(=O)N[C@@H](CC(N)=O)C(=O)N[C@H](C(=O)N[C@H](C(=O)N[C@@H](CCC(N)=O)C(=O)O)[C@@H](C)O)[C@@H](C)CC)C(C)C)[C@@H](C)CC | RIA, item: intact compound | female C57Bl/6Jrj mice, plasma | intravenous, 25 nmol/kg, added: Val-Pyr 1.5 mg subcutaneous | 5 ± 0.6 min |
| CN1CCN(c2ccc(Nc3ncc4cc(C#N)c(=O)n(C5CCCC5)c4n3)cc2)CC1 | – | NIH Swiss nude mice, intracerebral U87 tumour, plasma | intravenous, 25 mg/kg, added: gefitinib 200 mg/kg oral 1 h before | 138 min |
| N#C[C@@]1(c2ccc3c(N)ncnn23)O[C@H](CO)[C@@H](O)[C@H]1O | metabolic stability | human, liver microsomes | 1 µM, pH 7.4 | 732 min |
| C[N+]1(CC(=O)OC2CCCCCCCCCCC2)CCC(Cc2ccccc2)CC1.[I-] (stereo not shown) | metabolic stability | human, liver microsomes | 1 µM, pH 7.4 | < 2 min |
| CC(C)Oc1cc(OCCCCCCCCn2ccnc2)ccc1NC(=N)c1ccccn1 | metabolic stability | human, liver microsomes | 3 µM | 52 to 68 min |
| CCCC[N+]1(CC(=O)OC2CCCCCCCCCCC2)CCCCC1.[I-] | metabolic stability | human, liver microsomes | 1 µM, pH 7.4 | < 2 min |
| CC[C@H](C)[C@@H]1NC(=O)[C@H](Cc2ccc(O)cc2)NC(=O)[C@@H](N)CSSC[C@@H](C(=O)N2CCC[C@H]2C(=O)N[C@@H](CC(C)C)C(=O)NCC(N)=O)NC(=O)[C@H](CC(N)=O)NC(=O)[C@H](CCC(N)=O)NC1=O | microdialysis, radioimmunoassay | knock-out male mice lacking compound, hippocampus extracellular fluid | intranasal, 12 µg, time to half of Cmax | 18.5 ± 5.3 min |
| O=C(C[S+]([O-])Cc1ccco1)C12CC3CC(CC(C3)C1)C2 (stereo not shown) | metabolic stability | human, liver microsomes | – | 30 to 40 min |
| CC[N+]1(CC(=O)OC2CCCCCCCCCCC2)CCCCC1.[I-] | metabolic stability | human, liver microsomes | 1 µM, pH 7.4 | < 2 min |

For quick reference, copied from above:
| Structure (SMILES) | assay | system | setting | half-life |
| --- | --- | --- | --- | --- |
| OC[C@H]1O[C@@H](OCCc2ccc(O)cc2)[C@H](O)[C@@H](O)[C@@H]1O | – | Balb/c tumour-bearing mice, plasma | oral, 109.2 mg/kg SNZ | 43.9 min |
